Results collected from several papers.
Parts stem from different laboratories: compare values within a part only.

Study 1
Target: Sal-like protein 4, full length isoform B (SALL4, Homo sapiens, UniProt Q9UJQ4-2, residues 1-616)
Technique: universal PBM
Molecule type: double-stranded DNA, one strand shown
Sample: in vitro
Tested at: not given
Setting: 8-mer, flanks averaged, mean of replicates
Direction: higher = stronger binding
Construct (chain): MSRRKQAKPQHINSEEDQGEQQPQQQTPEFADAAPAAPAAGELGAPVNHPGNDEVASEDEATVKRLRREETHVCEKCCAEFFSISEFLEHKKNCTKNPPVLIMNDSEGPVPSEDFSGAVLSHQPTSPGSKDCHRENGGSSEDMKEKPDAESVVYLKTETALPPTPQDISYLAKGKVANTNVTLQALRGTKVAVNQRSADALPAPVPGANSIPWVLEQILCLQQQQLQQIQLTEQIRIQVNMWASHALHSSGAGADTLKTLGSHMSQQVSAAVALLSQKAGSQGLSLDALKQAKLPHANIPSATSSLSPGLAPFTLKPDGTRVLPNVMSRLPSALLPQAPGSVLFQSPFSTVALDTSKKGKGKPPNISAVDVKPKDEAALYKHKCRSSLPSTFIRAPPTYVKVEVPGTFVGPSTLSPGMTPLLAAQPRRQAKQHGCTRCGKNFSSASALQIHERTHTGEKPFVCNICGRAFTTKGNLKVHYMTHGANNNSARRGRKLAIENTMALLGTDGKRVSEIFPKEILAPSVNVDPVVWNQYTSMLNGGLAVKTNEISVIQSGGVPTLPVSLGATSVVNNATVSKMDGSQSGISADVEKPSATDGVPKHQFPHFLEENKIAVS
The E-score of `TCATTCGA` is reported as 0.138.
`ACCTAAGT` has an E-score of 0.0408.
`CACTCACA` has an E-score of 0.00694.
For `AGCCAACG`, the E-score was -0.0399.
For `CATTGCAG`, the E-score was -0.0729.
With `AGACCCTC` the E-score was -0.209.
With `ATACTTTA` the E-score was 0.353.
For `ACTGAGAG`, the E-score was -0.141.
`CGCCCGAG` gave an E-score of -0.342.
`GGGGTAGA` has an E-score of -0.0394.
`AACAACTG` gave an E-score of 0.0306.
For `CAATTTGG`, the E-score was 0.0768.
With `CGTGTCCC` the E-score was -0.196.
`ATAAACTG` has an E-score of 0.19.
`CACCACCG` gave an E-score of -0.33.
For `AAGAGTTC`, the E-score was -0.106.
The E-score of `CAAATCGC` is reported as -0.0947.

Study 2
Target: RING finger protein unkempt homolog, zinc fingers 1-6, GST-SBP tag (UNK, Homo sapiens, UniProt Q9C0B0, residues 30-357)
Chain of UniProt Q9C0B0 (30-357, looked up): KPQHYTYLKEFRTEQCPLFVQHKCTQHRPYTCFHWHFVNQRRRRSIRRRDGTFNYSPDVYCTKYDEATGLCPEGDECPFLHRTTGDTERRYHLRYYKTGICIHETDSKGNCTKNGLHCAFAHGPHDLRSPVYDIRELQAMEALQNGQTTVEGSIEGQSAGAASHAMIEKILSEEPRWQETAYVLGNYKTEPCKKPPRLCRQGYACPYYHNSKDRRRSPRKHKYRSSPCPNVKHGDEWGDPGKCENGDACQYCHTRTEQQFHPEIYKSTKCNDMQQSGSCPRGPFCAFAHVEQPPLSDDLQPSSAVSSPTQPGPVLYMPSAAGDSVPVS
Technique: RNA Bind-n-Seq
Molecule type: RNA
Sample: in vitro
Tested at: not given
Setting: RNA with constant flanks, human and mouse sites, ends assumed
Reference: input RNA pool
Direction: higher = stronger binding
`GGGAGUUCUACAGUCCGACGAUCUUACUGCACGUCAGUUUUUAUAAGGCACUUCAAGUAGUUUUGUGGAAAGAGAUGAGGUUUUAGUUAGAAUACAAUUGCCUUUUAAUUCAUGUUUUAAGAAAUUAAUGUUAGAAGUAAAAGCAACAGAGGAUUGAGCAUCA` gave a bound/input enrichment of 2.67 ratio.
With `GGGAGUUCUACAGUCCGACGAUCUGGUGUUGGCGGUCUGGCUCAGCUGGGCAGGGGGUAACUUUACUGAUUUGGGGGUGGUUUUUAGUUUAAUUUUUCUUUUCUAGCUUCCCAUCGACGGUCAGUGCGCACGUUGUAAUCAGCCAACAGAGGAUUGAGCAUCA` the bound/input enrichment was 3.19 ratio.
`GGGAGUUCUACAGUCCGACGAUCGCUUGGCAAGGUCUCGCUUUGCUGGUCCACAGAACAGUGGUUUUGCCACCAACUCAGUUUUCUUUGGACGACAGAGGAAGUAAAACUCCAGACAAUUCUGUCCCGAACUCCUCAAGUCUGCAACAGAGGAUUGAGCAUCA` gave a bound/input enrichment of 0.102 ratio.
With `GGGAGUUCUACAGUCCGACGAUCUUGUGGUGCGCUGUCUUCCCGCUUGCGUCAGGGACCUGCCCGACUCAGUGGCCGCCAUGGCAUCAGAUGAAGGCAAACUUUUUGUUGGAGGGCUGAGUUUUGACACCAAUGAGCAGUCGCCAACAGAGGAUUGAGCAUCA` the bound/input enrichment was 0.12 ratio.
`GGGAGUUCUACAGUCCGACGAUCAGGCCCCGGUCCAGGGCGGGCGGCCUGGCGGCGAUGCCGUACAUGCGCUUCCGCCACCCCCUCAGCGUCUUGGGCAUCAAUUACCAGCAGUUCCUGCGCCACUACCUGGAGAACUACCCGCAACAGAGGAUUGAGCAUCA` has a bound/input enrichment of 0.144 ratio.
With `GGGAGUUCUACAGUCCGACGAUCCUCCUAAAAACUGUACCAAUUAUUCAGAAUCAGAUGGAUGCACUUCUUGAUUUUAAUGUUAAUAGCAAUGAACUUACAAAUGGGGUAAUAAAUGCUGCCUUCAUGCUCCUGUUCAAAGAUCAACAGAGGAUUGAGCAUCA` the bound/input enrichment was 0.443 ratio.
`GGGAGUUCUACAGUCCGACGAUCCUUUUGAUUUCUUUUUCUUUUUUUCUCUUCUUGUUUUUGUUUUUCUUUUUUGUUUGUUUUUUUAGCAUGCAAAUAUGUUGGUACGUUAUGUCCUGGUUUAAAAGGAUUAAAAAUUUAAAACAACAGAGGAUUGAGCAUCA` has a bound/input enrichment of 1.13 ratio.
For `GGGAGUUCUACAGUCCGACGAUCUCUAGGACAACAUUUGAUUGAGGAUGAACUAUUAUUACUAGAAAGCAAUUUGGUGACAAAAAAAAUCCUCACACGGGCGUCUCACAAUGGUUGAUUUUCCAGGGUCCUGGGUAUAUGAGACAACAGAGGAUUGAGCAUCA`, the bound/input enrichment was 13.1 ratio.
`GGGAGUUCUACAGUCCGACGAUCCAAAAGAUCCUGGCUAACUGUUCUUCUCCCUACCAUGUAGAUCUGUUGGGUAUAGCAGACCUAGCGCACUUACUCCUGUUCAAGGAGCACCUCCAUGUCUUCUGGGAUGGACUCCUCUGGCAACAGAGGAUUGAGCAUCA` gave a bound/input enrichment of 0.104 ratio.
With `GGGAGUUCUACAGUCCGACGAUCGGGUCCUGCAGGAAGCAGUGUUCUCCUUGGUGCCCGGGGAAACCUCCCAUGUCUGUUUCCUAUAGGCCACUUGUUCCUCACGACCAUCCGGCCUGACAAUCAGAAUUCCUAUCUCAUUGCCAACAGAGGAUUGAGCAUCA` the bound/input enrichment was 0.196 ratio.
`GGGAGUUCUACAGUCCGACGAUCCUUCAGCUGGUGUUGGUCUGGCUGGGAGAGGUGCUGGGUGUCAUUGGGGACUCCCCAGAGCUAGUUCAGCGGUCCUUCCUUGUGGCUAGUGUUCUGCCAGGUCCCGAUGGCAACGUUAACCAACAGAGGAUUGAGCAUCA` gave a bound/input enrichment of 0.161 ratio.

Study 3
Target: Histone acetyltransferase KAT6A, both winged helices, GST fusion (KAT6A, Homo sapiens, UniProt Q92794, residues 1-181)
Technique: protein binding microarray
Molecule type: double-stranded DNA, one strand shown
Sample: in vitro
Tested at: not given
Setting: 8-mer, flanks averaged, mean of 2 arrays, mostly near background
Reference: not given
Direction: higher = stronger binding
Construct (chain): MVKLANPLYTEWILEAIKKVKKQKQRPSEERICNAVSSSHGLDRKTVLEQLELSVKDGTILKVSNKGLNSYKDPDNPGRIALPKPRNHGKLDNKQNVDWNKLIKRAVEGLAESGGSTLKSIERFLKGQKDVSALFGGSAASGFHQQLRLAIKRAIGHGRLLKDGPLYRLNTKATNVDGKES
For `TCTTTACA`, the E-score was -0.136.
`CCGGCTCC` gave an E-score of 0.0926.
`CGGCACGC` has an E-score of 0.301.
The E-score of `CTACAGGC` is reported as -0.00242.
`CAGTCTAG` has an E-score of -0.0799.
`GTTCGGGA` gave an E-score of -0.0317.
`CTAACTGC` gave an E-score of -0.131.
The E-score of `ATGAAGTG` is reported as -0.0865.
`GTCTTTGA` gave an E-score of -0.049.
For `GCATCTGA`, the E-score was -0.0504.
The E-score of `AGAAAAGC` is reported as -0.0375.
The E-score of `AATGATGC` is reported as -0.0175.
`CCTACCGC` has an E-score of 0.135.
`CTATCGAC` has an E-score of 0.00415.
`ACGCTAAC` gave an E-score of 0.159.
The E-score of `AAACTCCT` is reported as -0.152.
For `CTTCGATC`, the E-score was -0.116.
`AGCGCCTG` has an E-score of 0.108.

Study 4
Target: Phosphate system positive regulatory protein PHO4, full length, GST-tagged (PHO4, Saccharomyces cerevisiae, UniProt P07270, residues 1-312)
Chain of UniProt P07270 (whole entry, looked up): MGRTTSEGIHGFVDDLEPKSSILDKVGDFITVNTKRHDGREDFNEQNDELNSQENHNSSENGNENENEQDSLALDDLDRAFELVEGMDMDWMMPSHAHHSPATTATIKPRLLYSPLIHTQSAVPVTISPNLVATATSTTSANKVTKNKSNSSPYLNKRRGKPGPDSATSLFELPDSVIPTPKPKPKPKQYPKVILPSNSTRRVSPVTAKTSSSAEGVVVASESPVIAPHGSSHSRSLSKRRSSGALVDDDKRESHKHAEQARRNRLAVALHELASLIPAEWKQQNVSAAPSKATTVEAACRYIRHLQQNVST
Technique: competition protein-binding microarray
Molecule type: double-stranded DNA, one strand shown
Sample: in vitro
Tested at: 2 µM
Setting: whole 60-bp probe, lowest competitor level
With: Cbf1 competitor, 0.05 µM
Direction: higher = stronger binding
The fluorescence intensity of `GATCTTGACCTTACCGTCGTGACGGGCAGCCTTGATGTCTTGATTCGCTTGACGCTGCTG` is reported as 4410 a.u.
The fluorescence intensity of `GGGTGTCGATACCGTCACGTGAAGACATTCCAAGTCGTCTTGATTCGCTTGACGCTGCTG` is reported as 11600 a.u.
`TGCGCAACAACTTGCATGGTGGGTGTATGTCTAGAAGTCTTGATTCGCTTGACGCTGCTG` has a fluorescence intensity of 5580 a.u.
With `CTTCTGTAAATTTGTCTAGTGGGTGGACGCGCCCCGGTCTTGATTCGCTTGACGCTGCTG` the fluorescence intensity was 3720 a.u.
With `CATACCCAACCTTGGCCCGTGGGTGAAGATATTTGTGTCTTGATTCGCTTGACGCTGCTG` the fluorescence intensity was 10500 a.u.
For `TTGATTAATGATTCCTTTTCCTCTTCTAGTGAAGTAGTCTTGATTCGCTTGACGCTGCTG`, the fluorescence intensity was 2510 a.u.
`ATCTTCTTTCACAATCACGTGAAACTTCCTCGATATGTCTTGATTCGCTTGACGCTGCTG` has a fluorescence intensity of 11900 a.u.
`TGCGCAACAACTTGGGTAGTGGGTGTATGTCTAGAAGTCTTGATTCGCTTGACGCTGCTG` gave a fluorescence intensity of 4980 a.u.
For `CACACCCAATTTTTGCACGTGCTTTAATAGTAGTTTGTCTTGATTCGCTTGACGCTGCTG`, the fluorescence intensity was 21700 a.u.
`CTAACGAAGGTTTGCGGAGTGGGTGACAAGCCAAGTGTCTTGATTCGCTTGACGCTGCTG` gave a fluorescence intensity of 3470 a.u.
The fluorescence intensity of `GTTGTTATTTTTTAGGTCGTGATGGGTGTTCCTTGTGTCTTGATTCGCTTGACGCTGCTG` is reported as 6850 a.u.
`GAGTGCTTGCAATATCACAGCGGTAGCTAGACTCGCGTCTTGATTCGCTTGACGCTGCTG` has a fluorescence intensity of 3250 a.u.
`CATACCCAACCTTGACGGGTGGGTGAAGATATTTGTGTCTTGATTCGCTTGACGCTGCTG` has a fluorescence intensity of 4720 a.u.
`CTTGCCATACCTTCACACGGGGTTCTTTGAGGCACTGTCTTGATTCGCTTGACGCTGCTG` gave a fluorescence intensity of 8290 a.u.
With `CGTCCTAGTGATTTTCACGTGGCCTCCATGAGGAAGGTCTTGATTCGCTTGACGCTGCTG` the fluorescence intensity was 15600 a.u.
`GTCTTGTCTCATTGATCGGTGGGTGTCCCCACTTCAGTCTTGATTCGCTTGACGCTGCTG` has a fluorescence intensity of 4650 a.u.
With `CTTCTGTAAATTTGTCACAAAACTTGACGCGCCCCGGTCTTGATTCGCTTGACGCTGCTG` the fluorescence intensity was 2670 a.u.
The fluorescence intensity of `CGCTAATTTCCTACCCACGTGCTTTAAATAACAATTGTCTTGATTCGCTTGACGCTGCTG` is reported as 19500 a.u.
